Results pooled from the literature.
Compare with care: the assays were run in different laboratories. Numbers after ± are the reported error.

With Cc1ccc2c(c1)/C(=N/NC(=O)N/N=C1\C(=O)Nc3ccc(C)cc31)C(=O)N2 the EC50 was over 100000 nM (respiratory syncytial virus; viral replication; HeLa).
The EC50 of C[C@H]1CN(c2n[nH]c3nc(N[C@H]4CC[C@H](NS(=O)(=O)CCC(F)(F)F)CC4)ncc23)CCO1 is reported as 6310 nM (Leishmania donovani; mouse peritoneal macrophages, resistant clone intramacrophage amastigotes).
CC(=CC(=O)NCCCCNc1cc(C(F)(F)F)nc2c(C(F)(F)F)cccc12)C(=O)NCCCCNc1cc(C(F)(F)F)nc2c(C(F)(F)F)cccc12 has an EC50 of 850 nM (Zika virus; viral cytopathic effect, MTS; Vero).
CC(C)(C)[C@H](NC(=O)[C@@H](NC(=O)c1cnccn1)C1CCCCC1)C(=O)N1CC2(Cc3ccccc3C2)C1C(=O)NC(CC1CCC1)C(=O)C(=O)NC1CC1 (stereo partly shown) has an EC50 of 800 nM (Hepatitis C virus; viral replication, inhibitor; Huh-7; replicon).
O=C(C1=C(O)c2ccccc2S(=O)(=O)N1)c1cccc(Cl)c1 has an EC50 of over 100000 nM (HIV-1; viral replication; PBMC).
O=S(=O)(c1cccs1)N1CCCCN2[C@H](CO)[C@@H](c3ccc(/C=C/c4ccccc4)cc3)[C@@H]2C1 has an EC50 of 2800 nM (respiratory syncytial virus; cytopathic effect; HEp-2, A2; 5 days, resynthesized sample).
With Cc1ccc(S(=O)(=O)N2C(=O)CSC2c2ccc(O)cc2)cc1 (stereo not shown) the EC50 was over 100000 nM (herpes simplex virus 1; viral cytopathicity; HEL, KOS).
CC1SC2(CCCCC2)N(NC(=O)Cc2csc3nc(-c4ccc(Br)cc4)cn23)C1=O (stereo not shown) gave an EC50 of over 100 µg/mL (feline herpesvirus; viral cytopathic effect; CRFK).
Cc1cccc(-c2ccc([C@@H]3[C@@H](CO)N4CCCCN(S(=O)(=O)c5cn(C)cn5)C[C@@H]34)cc2)c1 has an EC50 of 3300 nM (respiratory syncytial virus; cytopathic effect; HEp-2, A2; 5 days, resynthesized sample).
CC(C)(C)NC(=O)N[C@H](C(=O)N1C[C@H]2[C@@H]([C@H]1C(=O)NC(CC1CCC1)C(=O)C(N)=O)C2(C)C)C(C)(C)C (stereo partly shown) gave an EC50 of 210 nM (Hepatitis C virus; viral replication, inhibitor; Huh7.5, GETYPE1B; 72 h, replicon).
For COC(=O)c1c[nH]c2ccc(CN3CCN(c4ccc(C(F)(F)F)cc4)CC3)cc2c1=O, the EC50 was 85 to 90 nM (Plasmodium berghei; HepG2, liver stage; 44 h).
For Cc1ccc(S(=O)(=O)N2C(=O)CSC2c2cccc(Br)c2)cc1 (stereo not shown), the EC50 was over 100000 nM (herpes simplex virus 1; viral cytopathicity; HEL, KOS TK-deficient acyclovir-resistant).
O=c1cc(OCc2cccc(I)c2)oc2ccc(OCc3cccc(Cl)c3)c(O)c12 gave an EC50 of 3000 to 4000 nM (Hepatitis C virus; viral replication, inhibitor; Huh-7, GETYPE1; 96 h, replicon).
With CN[C@@](C)(C[18F])C(=O)O the tissue uptake was 4.1 ± 0.7 %ID/g (SCID mouse U87 xenograft, lung; 15 min, post injection).
The EC50 of Cc1ccc(S(=O)(=O)N2C(=O)CSC2c2ccccc2Cl)cc1 (stereo not shown) is reported as over 100000 nM (herpes simplex virus 1; viral cytopathicity; HEL, KOS).
O=C(NCCc1ccc(F)cc1F)c1cn(Cc2ccc(F)cc2)cc(O)c1=O gave an EC50 of 430 nM (Human betaherpesvirus 5; viral replication, inhibitor; 7 days).
O=Cc1cc(Cn2ccc(=O)[nH]c2=O)ccc1O gave an EC50 of over 100000 nM (human cytomegalovirus; cytopathic effect; HEL fibroblasts, AD-169).
COC(=O)N[C@H](C(=O)N1CCC[C@H]1c1ncc(-c2ccc(-c3ccc(-c4cnc([C@@H]5CCCN5C(=O)[C@@H](NC(=O)OC)C(C)C)[nH]4)cc3)cc2)[nH]1)C(C)C has an EC50 of 20 ± 6 nM (hepatitis C virus; viral replication, transient replicon; genotype 1a NS5A L31V).
O=C(NCc1ccc(F)cc1F)c1cn(Cc2ccc(F)cc2)ccc1=O has an EC50 of 6600 nM (Human betaherpesvirus 5; viral replication, inhibitor; 7 days).
For O=C(Nc1ccc(F)cc1)Oc1ccc[nH]c1=O, the EC50 was over 100000 nM (Alphacoronavirus 1; viral replication, inhibitor; CRFK; 2 h).
Nc1nc(F)nc2c1ncn2[C@@H]1O[C@H](CO)[C@@H](O)[C@@H]1O gave an EC50 of 8890 nM (human coronavirus NL63; cytopathic effect, MTS; LLC-MK2; 5 days).
With COc1cc(C=C2CCCC(=Cc3ccc(O)c(OC)c3)C2=O)ccc1O the EC50 was 2340 ± 210 nM (dengue virus 2; viral replication, plaque reduction; BHK-21).
